Earlier results, collected from citations in different studies.
Protocols differ between the studies behind these lines. ± marks the error that the study gave.
Oprk1: Kappa-type opioid receptor (Oprk1, Mus musculus, UniProt P33534)
Sequence of UniProt P33534 (whole entry, looked up): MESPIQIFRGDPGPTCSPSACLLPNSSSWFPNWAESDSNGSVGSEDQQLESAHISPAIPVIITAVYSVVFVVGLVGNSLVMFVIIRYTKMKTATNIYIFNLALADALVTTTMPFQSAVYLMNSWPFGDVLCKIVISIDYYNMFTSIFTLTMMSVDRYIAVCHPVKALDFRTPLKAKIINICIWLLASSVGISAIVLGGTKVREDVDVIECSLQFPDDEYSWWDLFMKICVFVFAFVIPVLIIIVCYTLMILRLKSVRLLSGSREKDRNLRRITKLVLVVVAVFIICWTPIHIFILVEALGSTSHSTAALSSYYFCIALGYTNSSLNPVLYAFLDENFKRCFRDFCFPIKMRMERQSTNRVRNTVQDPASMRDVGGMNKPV
Sequence of UniProt P14842 (whole entry, looked up): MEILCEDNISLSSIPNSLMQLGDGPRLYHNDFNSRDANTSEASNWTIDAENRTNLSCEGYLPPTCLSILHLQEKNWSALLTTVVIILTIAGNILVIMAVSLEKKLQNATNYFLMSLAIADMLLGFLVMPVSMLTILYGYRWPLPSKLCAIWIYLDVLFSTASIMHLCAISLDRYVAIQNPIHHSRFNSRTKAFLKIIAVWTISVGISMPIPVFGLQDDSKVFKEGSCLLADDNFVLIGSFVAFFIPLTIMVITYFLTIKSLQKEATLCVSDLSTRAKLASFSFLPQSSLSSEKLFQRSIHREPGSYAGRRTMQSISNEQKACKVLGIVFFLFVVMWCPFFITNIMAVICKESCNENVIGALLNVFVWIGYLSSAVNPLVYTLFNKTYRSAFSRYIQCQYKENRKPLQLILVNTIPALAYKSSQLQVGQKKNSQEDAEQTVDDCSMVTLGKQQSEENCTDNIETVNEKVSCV

Structure (SMILES) | tested on | test | test system | conditions | measurement | value
CCCCCn1c(C)c(C(=O)c2cccc3cc(OC)ccc23)c2ccccc21 | CB1 receptor | binding |  |  | Ki | 250 nM
O=C(NC1C=C[C@H]2[C@H]3Cc4ccc(O)c5c4[C@@]2(CCN3CC2CC2)C1O5)c1cccc(I)c1 (stereo partly shown) | Oprk1 |  |  |  | Ki | 0.006 nM
CNC(C)C(=O)c1ccc(C)cc1 (stereo not shown) | dopamine transporter |  |  |  | Ki | 3400 nM
NC(=O)c1c(Br)n([C@H]2O[C@@H](CO)[C@@H](O)[C@@H]2O)c2ncnc(N)c12 | Cyclin-dependent kinase 2 (CDK2, Homo sapiens, UniProt P24941) |  |  |  | IC50 | 61 nM
CC1=CCC2C(C1)c1c(O)cc(C(C)(C)CCCCCC#N)cc1OC2(C)C (stereo not shown) | CB1 receptor | binding |  |  | Ki | 0.19 nM
CCCC(C)(C)c1ccc2c(c1)OC(C)(C)[C@@H]1CC=C(C)C[C@@H]21 | cannabinoid receptor 1, human | binding |  |  | Ki | 677 nM
CC(NC(C)(C)C)C(=O)c1cccc(Cl)c1 (stereo not shown) | nicotinic acetylcholine receptor α7 | antagonist |  |  | IC50 | 54000 nM
O=C(NC1CC[C@@]2(O)[C@H]3Cc4ccc(O)c5c4[C@@]2(CCN3CC2CC2)C1O5)c1cccc(I)c1 (stereo partly shown) | Oprk1 |  |  |  | EC50 | 0.22 ± 0.02 nM
CC1CCN(C(=O)c2ccc3c(c2)c2c(n3S(=O)(=O)c3ccccc3)CN(C3CCCC3)C2)CC1 | CB1 receptor | binding |  |  | Ki | 259 nM
COC(=O)[C@@H]1C[C@H](OC(C)=O)C(=O)[C@H]2[C@@]1(C)CC[C@H]1C(=O)O[C@H](c3ccoc3)C[C@]21C | kappa opioid receptor V108A/V118K |  |  |  | Ki | > 5000 nM
CCCCCOc1ccc(-c2ccc(-c3ccc(C(=O)N[C@H]4C[C@@H](O)[C@@H](O)NC(=O)[C@@H]5[C@@H](O)[C@@H](C)CN5C(=O)[C@H]([C@@H](C)O)NC(=O)[C@H]([C@H](O)[C@@H](O)c5ccc(O)cc5)NC(=O)[C@@H]5C[C@@H](O)CN5C(=O)[C@H]([C@@H](C)O)NC4=O)cc3)cc2)cc1 |  |  | human renal impairment severe | 50 mg single dose | volume of distribution | 39.6 ± 9.4 L
O=S(=O)([O-])C(F)(F)C(F)(F)C(F)(F)C(F)(F)C(F)(F)C(F)(F)C(F)(F)C(F)(F)F.[Li+] | CYP2D6 | inhibitor |  | Tox21 screening | IC50 | inactive
COc1cc(C[C@@H](C)N)c(OC)cc1I | 5-hydroxytryptamine receptor 2A (Rattus norvegicus, UniProt P14842) |  |  |  | EC50 | 19.8 nM

Excerpt of the above:
Structure (SMILES) | tested on | test | test system | conditions | measurement | value
COc1cc(C[C@@H](C)N)c(OC)cc1I | 5-hydroxytryptamine receptor 2A (Rattus norvegicus, UniProt P14842) |  |  |  | EC50 | 19.8 nM
